# Measured values collected from several papers.
# Each numbered part is a random draw from the data of one study; scales do not carry over between parts. Changes are numbered by the printed parent chain.

# Sample 1 — technique: protein-binding microarray; form: double-stranded DNA, one strand shown; medium: in vitro; concentration: 2200 nM top; notes: 60-bp whole probe; with: salmon DNA 0.4 mg/ml; reference: random background probes; reading: higher = stronger binding; shared flanks, not repeated: GCCTAGCAC … GTCTTGATTCGCTTGACGCTGCTG
# Target: Interferon regulatory factor 7, full length, phosphomimetic (IRF7, Homo sapiens, UniProt Q92985, residues 1-503, S471D/S472D/S475D/S476D/S477D/S483D/S484D/S487D)
# Construct (chain): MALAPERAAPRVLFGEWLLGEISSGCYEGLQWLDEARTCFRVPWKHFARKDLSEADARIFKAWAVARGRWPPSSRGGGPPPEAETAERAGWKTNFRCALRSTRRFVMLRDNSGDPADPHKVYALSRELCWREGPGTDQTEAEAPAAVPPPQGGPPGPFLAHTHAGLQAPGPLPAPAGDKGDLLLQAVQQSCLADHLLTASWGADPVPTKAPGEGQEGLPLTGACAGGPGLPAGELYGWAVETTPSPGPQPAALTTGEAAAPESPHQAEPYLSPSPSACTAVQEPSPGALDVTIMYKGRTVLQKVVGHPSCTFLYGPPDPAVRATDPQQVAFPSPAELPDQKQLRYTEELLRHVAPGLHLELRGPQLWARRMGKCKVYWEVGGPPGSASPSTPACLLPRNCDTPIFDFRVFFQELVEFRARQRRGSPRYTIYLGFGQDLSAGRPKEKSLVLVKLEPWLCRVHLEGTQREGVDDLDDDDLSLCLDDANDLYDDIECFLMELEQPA
Strand,fitted relative affinity [z-score]
GTATGACTCTGCCTCTAACTGTGCTAG,0.992
TTAGATTTCAGTTTCGATTAGTGCTAG,8.07
TTAGGTATCGGGTTTTGGTTAGTGCTA,1
GACGGTTTCCTACTGCTGGCGTGCTAG,1.97
GGGGTTAGGGTCATTCATTCGTGCTAG,-0.481
TCATGTTTGGCCCTGAAACTGTGCTAG,1.04
TTAGGTATCGGGTATCTGTTAGTGCTA,0.638
GACGATTTCGGGAATGGAGACGTGCTA,0.858
GAAGGACTGGACTATCGGGACGTGCTA,-0.902
CTATTTTTCACCTGCACTCAGTGCTAG,2.55
TTACATATCGGGTATCGATTAGTGCTA,1
TCAGTTTCTATTTTCTGACTGTGCTAG,7.57
GGTCTTCTGGACTGTTTGGTCGTGCTA,0.529

# Sample 2 — technique: protein binding microarray; form: double-stranded DNA, one strand shown; medium: in vitro; concentration: not given; reference: not given; reading: higher = stronger binding
# Target: Histone acetyltransferase KAT6A, both winged helices, GST fusion (KAT6A, Homo sapiens, UniProt Q92794, residues 1-181)
# Notes: 8-mer, flanks averaged, mean of 2 arrays, mostly near background
# Residues (chain): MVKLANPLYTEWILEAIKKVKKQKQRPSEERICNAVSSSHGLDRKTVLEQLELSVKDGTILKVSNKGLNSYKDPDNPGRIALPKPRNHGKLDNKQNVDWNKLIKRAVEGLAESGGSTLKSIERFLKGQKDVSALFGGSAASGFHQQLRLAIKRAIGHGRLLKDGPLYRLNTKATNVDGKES
Strand,E-score
AACGTGCT,-0.17
GGCGTGCA,0.159
GTGAACAA,-0.0239
AATCTAGT,-0.125
AAAGGAAT,-0.113
AGATGCTA,-0.179
CCGGATAG,0.144
ACAGTTTA,-0.0639
GTTGTTCA,-0.0415
GAGAGATA,-0.0516
ACACGCTG,0.0366
GGCCCGCC,0.193
AGTATATG,-0.0438
GATCAGGC,-0.099
AACGGCCT,0.167
ACGTACCT,-0.229
AGTAAAGA,-0.0417
AAATATGT,0.0352

# Sample 3 — target: CCND3, cyclin fold, Cln2 fusion (human); technique: yeast growth competition, sequencing; medium: yeast; notes: weak parent motif; reference: not given; reading: higher = stronger binding
# Starting sequence: RBL1 docking peptide (human); GSAKRRLFGEDPP
Change,normalised enrichment score
GSAKIRLFGEDPP [R5I],-0.00319
GSAKRKLFGEDPP [R6K],0.113
GSAKRNLFGEDPP [R6N],0.131
GSAKRRLFGLDPP [E10L],0.146
GSAKRRLFGEDLP [P12L],0.107
GSAKRLLFGEDPP [R6L],0.0999
GSAKRRLHGEDPP [F8H],0.202
GMAKRRLFGEDPP [S2M],0.107
GWAKRRLFGEDPP [S2W],0.0416
GSAKRRLFGVDPP [E10V],0.14
GSAKRRLFGEDPI [P13I],0.0826
GSAKRRLFGEDNP [P12N],0.0728
GSAKRRLFGEDPC [P13C],0.113
GSAKRRLFGQDPP [E10Q],0.0432
KSAKRRLFGEDPP [G1K],0.117
GSAKRRHFGEDPP [L7H],0.124
GSAKRYLFGEDPP [R6Y],0.237

# Further values, each from its own experiment
Molecule,target,assay,test system,conditions,how to read,quantity,value
"PhoQ, residues 284 288 289 292 302 303 SIHLQL","PhoP, residues 12 14 15 18 19 SYFRT (Escherichia coli, UniProt P23836)","Sort-seq, measured: YFP reporter",E. coli,"PhoQ-PhoP variant library, with: 10 µM Mg2+","reference: high Mg2+ state, higher = stronger signaling",fold induction,12.8

# Some of these lines once more (sample 2):
Strand,E-score
AGTATATG,-0.0438
AACGTGCT,-0.17
ACACGCTG,0.0366
CCGGATAG,0.144
AGTAAAGA,-0.0417
GTTGTTCA,-0.0415
AACGGCCT,0.167
AATCTAGT,-0.125
